Results collected from several papers.
Protocols differ between the studies behind these lines. ± marks the error that the study gave. Converted amounts (≈) assume the structure as drawn.

Brc1ccc2[nH]c(-c3ccccc3)cc2c1  inhibition (HEK293 NF-κB luciferase reporter; reporter gene, measured: NF-κB; 50 µM, 6 h, together with: TNFα): 92.2 ± 2.7%
CCOC(=O)c1nc2ccccc2c(=O)n1Cc1cn(-c2ccc(OC)cc2)nn1  IC50 (Candida tropicalis; microbial growth, broth dilution; ATCC750; 24 h): 442 µg/mL (≈ 1090 µM)
Cc1ccc(NCc2ccc(Oc3ccccn3)cc2)cc1  MIC (Mycobacterium tuberculosis; H37Rv, 7H9/ADC/Tween medium; 2 weeks): 86 µM (≈ 25 µg/mL)
CCCCCc1ccc(-c2cc3ccccc3[nH]2)cc1  inhibition (HEK293 NF-κB luciferase reporter; reporter gene, measured: NF-κB; 50 µM, 6 h, together with: TNFα): 76.1 ± 4.1%
CC1(C)S[C@@H]2[C@H](NC(=O)[C@H](N)c3ccc(O)cc3)C(=O)N2[C@H]1C(=O)O  sensitive strains (Enterococcus; community-acquired pneumonia patients; Fine score below 70): 100%
O=C(O)c1nc2ccccc2c(=O)n1Cc1cn(-c2cccc(F)c2)nn1  IC50 (Candida tropicalis; microbial growth, broth dilution; ATCC750; 24 h): 175 µg/mL (≈ 480 µM)
ON=Cc1c(-c2ccccc2)[nH]c2ccccc12  viability (HEK293; cell growth or viability; 50 µM): 106%
PACAP  mRNA level (measured: BDNF; APP V717I transgenic mouse; intranasal, dose not given, 3 months; reference: vehicle): 154 ± 15.7%
CC[C@H](C)[C@H](NC(=O)[C@H](CCC(N)=O)NC(=O)[C@H](Cc1c[nH]cn1)NC(=O)[C@H](C)NC(=O)[C@H](CC(C)C)NC(=O)[C@H](CCCCN)NC(=O)[C@H](CCC(N)=O)NC(=O)[C@@H](NC(=O)[C@@H](NC(=O)[C@@H]1CSSC[C@H](NC(=O)CNC(=O)[C@H](Cc2ccccc2)NC(=O)[C@H](CO)NC(=O)[C@H](CCCNC(=N)N)NC(=O)[C@H](CC(C)C)NC(=O)CNC(=O)[C@H](CCC(N)=O)NC(=O)[C@H](Cc2ccccc2)NC(=O)[C@H](CC(N)=O)NC(=O)[C@H](CC(N)=O)NC(=O)[C@H](CCSC)NC(=O)[C@H](CO)NC(=O)[C@H](CCC(N)=O)NC(=O)[C@H](CCCNC(=N)N)NC(=O)[C@@H](N)Cc2ccc(O)cc2)C(=O)N[C@@H](CCCNC(=N)N)C(=O)N[C@@H](Cc2ccccc2)C(=O)NCC(=O)N[C@@H]([C@@H](C)O)C(=O)N1)[C@@H](C)O)C(C)C)C(=O)N[C@@H](Cc1ccc(O)cc1)C(=O)N[C@@H](CCC(N)=O)C(=O)N[C@@H](Cc1ccccc1)C(=O)N[C@H](C(=O)N[C@@H](CC(=O)O)C(=O)N[C@@H](CCCCN)C(=O)N[C@@H](CC(=O)O)C(=O)N[C@@H](CCCCN)C(=O)N[C@@H](CC(=O)O)C(=O)N[C@@H](CC(N)=O)C(=O)N[C@H](C(=O)N[C@@H](C)C(=O)N1CCC[C@H]1C(=O)N[C@@H](CCCNC(=N)N)C(=O)N[C@@H](CO)C(=O)N[C@@H](CCCCN)C(=O)N[C@H](C(=O)N[C@@H](CO)C(=O)N1CCC[C@H]1C(=O)N[C@@H](CCC(N)=O)C(=O)NCC(=O)N[C@@H](Cc1ccc(O)cc1)C(N)=O)[C@@H](C)CC)C(C)C)[C@@H](C)O  change in CDAI (patients, biologic-resistant Crohn's disease; intravenous infusion, 10 ng/kg/min, 6 weeks, unit not given, together with: biologic; reference: baseline): -79 ± 62
CC[C@H]1OC(=O)[C@H](C)[C@@H](O[C@H]2C[C@@](C)(OC)[C@@H](O)[C@H](C)O2)[C@H](C)[C@@H](O[C@@H]2O[C@H](C)C[C@H](N(C)C)[C@H]2O)[C@](C)(O)C[C@@H](C)CN(C)[C@H](C)[C@@H](O)[C@]1(C)O  sensitive strains (Enterococcus; community-acquired pneumonia patients; Fine score 70 or more): 0%
Cc1ccc2cc(-c3ccccc3)[nH]c2c1  inhibition (HEK293 NF-κB luciferase reporter; reporter gene, measured: NF-κB; 50 µM, 6 h, together with: TNFα): 97.3 ± 1.7%
SIYNFEKL  IFN-γ+ TNF-α+ cells (flow cytometry, measured: CD44hi CD8+ T cells; peptide, OT-I CD8+ T cells, mouse; dose not given, primed 5 days, TGF-β1 from day 2 onward, together with: 20 ng/mL TGF-β1): 0.24%
C[C@H]1C[C@H]2CSC(N)=N[C@@]2(c2nc(NC(=O)c3ccc(OC(F)F)cn3)cs2)CO1  change from baseline (measured: CSF Aβx-40; healthy adults; 50 mg once daily, 14 days, day 15; reference: placebo-adjusted baseline): -61.5%
Cc1ccc(NC(=O)c2ccc(CN3CCN(C)CC3)cc2)cc1Nc1nccc(-c2cncc(-c3oncc3C)c2)n1  NMSS score (mild-to-moderate Parkinson's disease patients; oral, 50 mg once daily, pre-dose baseline, on anti-Parkinson medication; direction not given): 36.5 ± 23.5
Nc1ccc(-c2cc3ccccc3[nH]2)cc1  inhibition (HEK293 NF-κB luciferase reporter; reporter gene, measured: NF-κB; 50 µM, 6 h, together with: TNFα): 81.7 ± 4.2%
CC[C@H]1OC(=O)[C@H](C)[C@@H](O[C@H]2C[C@@](C)(OC)[C@@H](O)[C@H](C)O2)[C@H](C)[C@@H](O[C@@H]2O[C@H](C)C[C@H](N(C)C)[C@H]2O)[C@](C)(O)C[C@@H](C)C(=O)[C@H](C)[C@@H](O)[C@]1(C)O  sensitive strains (Enterococcus; community-acquired pneumonia patients; Fine score below 70): 0%

Excerpt of the above:
Cc1ccc(NCc2ccc(Oc3ccccn3)cc2)cc1  MIC (Mycobacterium tuberculosis; H37Rv, 7H9/ADC/Tween medium; 2 weeks): 86 µM (≈ 25 µg/mL)
CCCCCc1ccc(-c2cc3ccccc3[nH]2)cc1  inhibition (HEK293 NF-κB luciferase reporter; reporter gene, measured: NF-κB; 50 µM, 6 h, together with: TNFα): 76.1 ± 4.1%
